Measured values from different studies.
Protocols differ between the studies behind these lines. ± marks the error that the study gave.
gabR full length assumed: gabR full length assumed (Bacillus subtilis, UniProt P94426)
Sequence of UniProt P94426 (whole entry, looked up): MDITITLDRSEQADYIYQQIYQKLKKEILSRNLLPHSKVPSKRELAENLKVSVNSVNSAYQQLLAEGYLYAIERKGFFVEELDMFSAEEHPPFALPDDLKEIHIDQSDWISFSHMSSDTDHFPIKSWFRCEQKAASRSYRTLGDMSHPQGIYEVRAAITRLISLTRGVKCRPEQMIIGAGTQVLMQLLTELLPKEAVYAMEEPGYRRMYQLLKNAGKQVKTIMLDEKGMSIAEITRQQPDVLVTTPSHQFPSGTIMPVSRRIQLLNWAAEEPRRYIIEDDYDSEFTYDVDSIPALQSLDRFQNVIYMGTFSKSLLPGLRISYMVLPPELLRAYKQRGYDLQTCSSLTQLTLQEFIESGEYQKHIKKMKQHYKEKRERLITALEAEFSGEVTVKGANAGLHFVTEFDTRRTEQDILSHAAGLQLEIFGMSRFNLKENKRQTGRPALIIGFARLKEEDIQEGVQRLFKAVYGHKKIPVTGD
DNMT1: DNMT1 1-1616 (Homo sapiens, UniProt P26358)
Sequence of UniProt P26358 (whole entry, looked up): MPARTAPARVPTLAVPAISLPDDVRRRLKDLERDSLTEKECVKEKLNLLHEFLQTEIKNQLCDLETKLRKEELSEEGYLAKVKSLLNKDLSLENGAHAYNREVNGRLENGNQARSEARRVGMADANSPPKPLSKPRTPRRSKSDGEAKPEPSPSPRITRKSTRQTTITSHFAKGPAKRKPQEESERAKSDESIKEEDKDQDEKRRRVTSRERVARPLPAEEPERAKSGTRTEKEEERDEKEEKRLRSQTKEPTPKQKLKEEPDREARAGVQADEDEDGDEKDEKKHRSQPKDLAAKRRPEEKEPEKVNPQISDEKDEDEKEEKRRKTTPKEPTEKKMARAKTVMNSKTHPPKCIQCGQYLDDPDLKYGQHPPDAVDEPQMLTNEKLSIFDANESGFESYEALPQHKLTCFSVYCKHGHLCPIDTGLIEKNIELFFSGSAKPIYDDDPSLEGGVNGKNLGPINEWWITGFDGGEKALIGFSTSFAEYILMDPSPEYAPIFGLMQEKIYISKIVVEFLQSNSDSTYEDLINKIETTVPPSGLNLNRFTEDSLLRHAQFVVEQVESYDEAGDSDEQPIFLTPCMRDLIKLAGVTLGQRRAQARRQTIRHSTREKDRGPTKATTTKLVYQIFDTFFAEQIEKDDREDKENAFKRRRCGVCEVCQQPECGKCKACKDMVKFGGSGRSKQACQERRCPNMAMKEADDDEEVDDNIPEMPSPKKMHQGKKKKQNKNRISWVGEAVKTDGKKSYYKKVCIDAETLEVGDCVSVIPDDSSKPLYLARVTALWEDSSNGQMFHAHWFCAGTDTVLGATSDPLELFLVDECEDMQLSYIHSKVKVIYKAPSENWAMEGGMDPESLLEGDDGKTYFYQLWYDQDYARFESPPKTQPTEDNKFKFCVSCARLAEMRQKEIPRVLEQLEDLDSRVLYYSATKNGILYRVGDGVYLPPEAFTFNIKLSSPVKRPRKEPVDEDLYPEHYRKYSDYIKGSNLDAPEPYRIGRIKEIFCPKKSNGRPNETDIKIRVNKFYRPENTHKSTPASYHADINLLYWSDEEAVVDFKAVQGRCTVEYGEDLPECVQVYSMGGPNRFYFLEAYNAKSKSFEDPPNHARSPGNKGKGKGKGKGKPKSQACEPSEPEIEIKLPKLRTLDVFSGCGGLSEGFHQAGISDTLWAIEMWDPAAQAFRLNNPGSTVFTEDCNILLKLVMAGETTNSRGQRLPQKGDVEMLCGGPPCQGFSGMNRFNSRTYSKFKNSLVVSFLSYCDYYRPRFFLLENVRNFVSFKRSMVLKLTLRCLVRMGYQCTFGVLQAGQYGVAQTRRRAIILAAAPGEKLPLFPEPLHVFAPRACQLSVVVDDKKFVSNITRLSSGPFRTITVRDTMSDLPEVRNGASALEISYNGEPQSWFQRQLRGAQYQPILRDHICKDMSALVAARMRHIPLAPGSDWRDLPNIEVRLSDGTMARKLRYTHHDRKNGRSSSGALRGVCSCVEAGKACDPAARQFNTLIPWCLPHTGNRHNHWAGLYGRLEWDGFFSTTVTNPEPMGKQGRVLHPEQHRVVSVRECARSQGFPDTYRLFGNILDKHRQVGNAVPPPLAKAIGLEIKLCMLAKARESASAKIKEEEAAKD
TDG: TDG 1-410 (Homo sapiens, UniProt Q13569)
Sequence of UniProt Q13569 (whole entry, looked up): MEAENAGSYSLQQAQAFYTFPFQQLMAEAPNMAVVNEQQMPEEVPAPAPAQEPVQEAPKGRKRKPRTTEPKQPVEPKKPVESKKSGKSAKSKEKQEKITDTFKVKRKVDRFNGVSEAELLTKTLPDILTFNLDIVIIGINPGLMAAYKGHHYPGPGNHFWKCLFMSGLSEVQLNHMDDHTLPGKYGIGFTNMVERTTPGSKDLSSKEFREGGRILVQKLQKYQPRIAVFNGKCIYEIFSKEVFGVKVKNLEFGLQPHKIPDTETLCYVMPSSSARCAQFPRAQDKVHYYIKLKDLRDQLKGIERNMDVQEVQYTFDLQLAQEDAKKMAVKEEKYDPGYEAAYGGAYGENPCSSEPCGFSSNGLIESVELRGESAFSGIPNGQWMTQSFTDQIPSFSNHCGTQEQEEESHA
Sequence of UniProt P0C835 (whole entry, looked up): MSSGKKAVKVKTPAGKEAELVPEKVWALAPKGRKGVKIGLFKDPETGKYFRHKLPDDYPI
Sequence of UniProt Q9NR56 (whole entry, looked up): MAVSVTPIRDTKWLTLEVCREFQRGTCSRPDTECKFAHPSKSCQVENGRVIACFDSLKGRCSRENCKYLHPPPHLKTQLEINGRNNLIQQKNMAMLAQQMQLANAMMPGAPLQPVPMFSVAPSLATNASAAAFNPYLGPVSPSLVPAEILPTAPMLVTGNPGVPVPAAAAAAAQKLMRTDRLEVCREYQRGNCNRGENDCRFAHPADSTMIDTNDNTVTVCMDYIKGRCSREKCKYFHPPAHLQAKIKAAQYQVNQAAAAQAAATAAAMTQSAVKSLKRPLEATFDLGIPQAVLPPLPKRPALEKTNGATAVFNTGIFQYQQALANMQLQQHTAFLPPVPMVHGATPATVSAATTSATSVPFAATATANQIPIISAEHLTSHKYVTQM

Sequence = CTTCTGATACCATCAAAAAGTTATAATTGGTACTTGACATCATACCAAAGAGAAGTCAGAATGATAAGAAAATACCG (dsDNA (Bacillus subtilis)); target = gabR full length assumed; assay = BLI; test system = double-stranded DNA, one strand shown; endpoint = Kd; result = 0.114 ± 0.023 µM
Sequence = GATCCCCCAATGCTTCGTTTCGTATCACACACCCCAAAGCCTTCTGCTTTGAATGCTGCC (dsDNA; 60 bp duplex); target = cren7 2-60 (Saccharolobus shibatae, UniProt P0C835); assay = EMSA; test system = double-stranded DNA, one strand shown; setting = apparent; endpoint = Kd; result = 0.113 µM
Sequence = AGGGGCGGGCGCGGGAGGAAGGGGGCGGGAGCGGGGCTG (G-quadruplex DNA; G4); target = DNMT1; assay = ELISA; test system = folded DNA; setting = K+ 100 mM; endpoint = Kd; result = 0.0096 ± 0.0003 µM
Sequence = CGCGGGGUGGAGCAGCCUGGUAGCUCGUCGGGCUCAUAACCCGAAGAUCGUCGGUUCAAAUCCGGCCCCCGCAACCA (tRNA (Escherichia coli); cloverleaf, unmodified); target = trmJ 1-246 R84A (Escherichia coli, UniProt P0AE01); assay = EMSA; test system = folded RNA; setting = Mg2+ 5 mM, with: sinefungin 500 µM; endpoint = binding; result = no binding
Sequence = CCUGUCUCGCUUUUCCCCUCCGCUGCGGCCAC (ssRNA (Homo sapiens); hairpin); target = MBNL1 173-255 (Homo sapiens, UniProt Q9NR56); assay = NMR titration; test system = folded RNA; endpoint = binding; result = binds
Sequence = CTTCTGATACCATCAAAAAGTTCGAATTGGTACTTTTCATCATACCAAAGAGAAGTCAGAATGATAAGAAAATACCG (dsDNA (Bacillus subtilis)); target = gabR full length assumed; assay = BLI; test system = double-stranded DNA, one strand shown; endpoint = Kd; result = 0.0246 ± 0.0119 µM
Sequence = GTGTCACCACTGCTCACGTACAGAGCTG (dsDNA; fully paired duplex); target = TDG; assay = fluorescence anisotropy; test system = double-stranded DNA, one strand shown; endpoint = Kd; result = 0.063 ± 0.01 µM
Sequence = CGGGCGGGCGCGAGGGAGGGG (G-quadruplex DNA; G4); target = DNMT1; assay = ELISA; test system = folded DNA; setting = K+ 100 mM; endpoint = Kd; result = 0.0152 ± 0.0004 µM
Sequence = DNA 1 TCATGTACAGAGCTG / DNA 2 CAGCTCTGTACGTGA (dsDNA; 2'-F-arabino-T mispaired with G, CpG); target = TDG; assay = fluorescence anisotropy; test system = double-stranded DNA; endpoint = Kd; result = 0.124 ± 0.025 µM
Sequence = CTTCTGATACCATAAAAAAGTTTTAATTGGAACTTTTAATCATACCAAAGAGAAGTCAGAATGATAAGAAAATACCG (dsDNA (Bacillus subtilis)); target = gabR full length assumed; assay = BLI; test system = double-stranded DNA, one strand shown; endpoint = Kd; result = 0.101 ± 0.016 µM
